Assay results collected from several papers.
Each numbered part is a random draw from the data of one study; scales do not carry over between parts.
Sequence of UniProt Q9UJQ4 (whole entry, looked up): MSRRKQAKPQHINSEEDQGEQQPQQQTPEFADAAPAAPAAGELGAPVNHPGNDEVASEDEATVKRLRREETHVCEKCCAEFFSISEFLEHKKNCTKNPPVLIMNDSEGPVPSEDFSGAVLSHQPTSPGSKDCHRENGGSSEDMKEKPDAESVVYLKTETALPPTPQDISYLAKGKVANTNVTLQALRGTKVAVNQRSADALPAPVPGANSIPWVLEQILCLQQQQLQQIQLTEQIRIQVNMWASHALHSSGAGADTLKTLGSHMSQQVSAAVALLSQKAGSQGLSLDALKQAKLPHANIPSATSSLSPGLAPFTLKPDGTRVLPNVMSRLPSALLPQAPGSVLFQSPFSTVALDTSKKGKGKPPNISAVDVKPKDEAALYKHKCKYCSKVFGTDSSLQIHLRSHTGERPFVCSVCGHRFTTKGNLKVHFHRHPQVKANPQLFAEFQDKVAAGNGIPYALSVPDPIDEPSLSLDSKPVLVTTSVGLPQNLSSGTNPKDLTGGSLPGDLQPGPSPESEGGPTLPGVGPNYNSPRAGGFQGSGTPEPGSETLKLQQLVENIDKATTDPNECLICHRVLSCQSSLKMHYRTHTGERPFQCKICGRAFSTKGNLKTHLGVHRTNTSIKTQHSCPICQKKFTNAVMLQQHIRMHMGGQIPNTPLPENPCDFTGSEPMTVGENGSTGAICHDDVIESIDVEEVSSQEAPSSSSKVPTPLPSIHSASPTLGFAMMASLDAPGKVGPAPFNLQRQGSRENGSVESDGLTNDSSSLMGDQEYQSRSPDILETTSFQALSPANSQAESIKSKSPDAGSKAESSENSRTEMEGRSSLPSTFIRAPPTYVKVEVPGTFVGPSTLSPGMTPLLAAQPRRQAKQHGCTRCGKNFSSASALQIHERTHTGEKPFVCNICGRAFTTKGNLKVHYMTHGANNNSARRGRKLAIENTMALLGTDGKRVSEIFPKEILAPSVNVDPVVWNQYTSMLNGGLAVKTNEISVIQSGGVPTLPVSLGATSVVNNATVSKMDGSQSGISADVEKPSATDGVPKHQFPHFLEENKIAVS

Sample 1
Target: Fragile X messenger ribonucleoprotein 1, C-terminal low-complexity region (Fmr1, Mus musculus, UniProt P35922)
Method: RNA Bind-n-Seq
Molecule type: RNA
Matrix: in vitro
Concentration: 200 nM
Notes: whole 134-nt RNA, ends assumed
Together with: 150 mM LiCl
Baseline: input library
Direction: higher = stronger binding
All molecules: 7-deaza-guanosine replaces G
Oligonucleotide	log2 enrichment
GGGAGUUCUACAGUCCGACGAUCCCUGUGCUACACAUCGUAUGUACCGAAUCGGAAAAAAGGGAAAAAAGGGGAAAAAAGGGGAAAGUAUUAUGUUACGCCGUUCGGAUCUGCUGGAAUUCUCGGGUGUCAAGG	0.0477
GGGAGUUCUACAGUCCGACGAUCACCAUGCAGGUGGGCAUCUUUGGGAAGUGGGGCAAGGGGGGGAUAGGGAGGGGGGUAACACUUUGGGAACAGGUGGUCCCAGGUCGUUUGUGGAAUUCUCGGGUGUCAAGG	1.53
GGGAGUUCUACAGUCCGACGAUCCUGUGCUACACAUCGUAUGUACCGAAUCGGGUUUUUUUGGGUUUUUUUGGGUUUUUUUGGGAAAGUAUUAUGUUACGCCGUUCGGAUCUGUGGAAUUCUCGGGUGUCAAGG	0.683

Sample 2
Target: Centromere-binding protein 1, full length, N-terminal tag (CBF1, Saccharomyces cerevisiae, UniProt P17106, residues 1-351)
Sequence of UniProt P17106 (whole entry, looked up): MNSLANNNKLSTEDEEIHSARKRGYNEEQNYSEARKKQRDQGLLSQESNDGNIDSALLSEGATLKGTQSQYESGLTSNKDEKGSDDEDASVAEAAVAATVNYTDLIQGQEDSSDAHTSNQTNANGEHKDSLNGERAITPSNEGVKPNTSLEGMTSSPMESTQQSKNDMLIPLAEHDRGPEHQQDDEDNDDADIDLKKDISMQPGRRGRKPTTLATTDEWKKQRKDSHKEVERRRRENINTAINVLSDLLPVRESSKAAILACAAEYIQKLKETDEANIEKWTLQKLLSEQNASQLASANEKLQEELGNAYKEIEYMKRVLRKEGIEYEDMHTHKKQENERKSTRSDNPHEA
Method: protein-binding microarray
Molecule type: double-stranded DNA, one strand shown
Matrix: in vitro
Concentration: 0.8 µM
Notes: whole 60-bp probe, no competitor
Direction: higher = stronger binding
Oligonucleotide	fluorescence intensity [a.u.]
GAAACTTCTGGTAAACACCTGATGCGATTCTAATAGGTCTTGATTCGCTTGACGCTGCTG	977
CTAATTCTGTATAACCTCACCTGCACGTAATCTTTCGTCTTGATTCGCTTGACGCTGCTG	646
GAACATAACCTATGTCACCATCTAACACCGTATTAGGTCTTGATTCGCTTGACGCTGCTG	538

Further values, each from its own experiment
Molecule	target	assay	test system	setting	how to read	endpoint	result
CCTAGTAG	Histone acetyltransferase KAT6A, winged helix 1, GST fusion (KAT6A, Homo sapiens, UniProt Q92794, residues 1-85)	protein binding microarray	double-stranded DNA, one strand shown, in vitro	not given, 8-mer, flanks averaged, mean of 2 arrays, mostly near background	baseline: not given, higher = stronger binding	E-score	-0.0832
PhoQ, residues 284 288 289 292 302 303 SSCCRF	PhoP, residues 12 14 15 18 19 LHSVQ (Escherichia coli, UniProt P23836)	Sort-seq, refers to: YFP reporter	E. coli	PhoQ-PhoP variant library, together with: 10 µM Mg2+	baseline: high Mg2+ state, higher = stronger signaling	fold induction	11.1
TCGAGGCA	Sal-like protein 4, full length isoform A (SALL4, Homo sapiens, UniProt Q9UJQ4, residues 1-1053)	universal PBM	double-stranded DNA, one strand shown, in vitro	600 nM, 8-mer, flanks averaged, mean of replicates	higher = stronger binding	E-score	-0.00852

Some of these lines once more (sample 1):
Oligonucleotide	log2 enrichment
GGGAGUUCUACAGUCCGACGAUCACCAUGCAGGUGGGCAUCUUUGGGAAGUGGGGCAAGGGGGGGAUAGGGAGGGGGGUAACACUUUGGGAACAGGUGGUCCCAGGUCGUUUGUGGAAUUCUCGGGUGUCAAGG	1.53
